Results from different studies.
A part holds a random share of what one study measured. Positions count from the first letter of the parent shown.

Series 1 — method: DHFR PCA, deep sequencing; medium: yeast; added: (+)-ABA 17 µM; baseline: wild-type fitted maximum; direction: higher = stronger binding; quantity: relative binding score
Target: ABI1, truncated, D143A, DHFR fusion (Arabidopsis thaliana)
Setting: methotrexate growth selection, single substitutions
Starting sequence: PYL1, truncated, DHFR fusion (Arabidopsis thaliana); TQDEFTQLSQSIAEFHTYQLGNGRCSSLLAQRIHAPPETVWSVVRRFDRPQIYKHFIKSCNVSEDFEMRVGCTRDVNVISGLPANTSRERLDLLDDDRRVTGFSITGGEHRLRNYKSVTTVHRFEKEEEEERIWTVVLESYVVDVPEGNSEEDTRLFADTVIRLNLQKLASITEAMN
E89M: 5.46%
Q51A: 31.7%
S150V: 38.4%
T135S: 90.7%

Series 2 — method: RNA Bind-n-Seq; molecule type: RNA; medium: in vitro; concentration: 365 nM; baseline: no-protein control; direction: higher = stronger binding; quantity: RBNS enrichment (R)
Target: RNA binding protein fox-1 homolog 2, RRM domain, GST-SBP tag (RBFOX2, Homo sapiens, UniProt O43251-10, residues 100-194)
Setting: natural RNA segment, single round, ends assumed
Residues (chain): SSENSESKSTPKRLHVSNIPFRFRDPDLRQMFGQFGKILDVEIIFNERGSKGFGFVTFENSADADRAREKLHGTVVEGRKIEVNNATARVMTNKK
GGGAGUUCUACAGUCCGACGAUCCAGUAUUUCACAGUGGACAUUUCACAGUAUUUCACAGUCUUGCCUGUGGCCUGCUGGCUGCAUGCUGUAUCAGCCACAACCUGGCAAGUGGCCUUCUGACAGGUUUCUUUUGGAAUUCUCGGGUGCCAA: 2.03
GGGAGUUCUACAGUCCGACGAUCCGUUUCUCAGGAAGUAGUCCCUUAACCAAAACGUCUCUGAGAAGUGAUGCUUAGGUAAUCUCUGGGAUCCGAUUUUCCCACAUGUCUCACUCCACAGUAUGCUAAAGAAGUGGAAUUCUCGGGUGCCAA: 0.257
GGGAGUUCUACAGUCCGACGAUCGACCUGAAAUUGUAUAGUGUUGAUUUGUGCUGAGAUCAAGAGGCAGGUUAGAAGAACCUGACAUCCACUGUUUGCCUUGGAUAGUAUGGCUUGUUUUUGGAAAGAAAUUCUGGAAUUCUCGGGUGCCAA: 4.47
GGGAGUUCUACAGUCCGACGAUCUCUGUCCAUUUCUGUUUUGCUUUCCUGGCUAAACCCAUCUACCAUUCUUAACACUGGUAGCUCCUGUCCCAUUCCAAGACUCACUCUCUCAGACCUUCCCAUCUCCCUGGUGGAAUUCUCGGGUGCCAA: 0.454
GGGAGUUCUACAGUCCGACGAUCUUUUACUUUUAUCAUCAAACAUCUGGUGUUUUAAUUUACUUUUUUUUUUAAUGCUGUUCCUCAUGUACAUGACUUAAAAAUGUCACCAAGGCAUCAAAAUGAGUUGACAGUGGAAUUCUCGGGUGCCAA: 0.454
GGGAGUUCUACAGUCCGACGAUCUGGGAAUGUGUGAUGCCUUUUCAGGCAAUAGGAAAGUGCAUGAGGAGAGUUUUGAAUGUGCAUAUGCUGACGCCUGAGAACAGACCCAGGUACCCGUGGCUGAGCUGAGCUGGAAUUCUCGGGUGCCAA: 16.9
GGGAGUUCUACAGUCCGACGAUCCUAACCCUAAAUCUUGACAUCAGAAAGUGUUUGCACUGUAUAAACAAUGUUAGCUGAAAGCAUGUUUAUUUUUUAAGGAGCUCCUGCUCUUCUGCACAUUUCCAUAUCUAUGGAAUUCUCGGGUGCCAA: 0.583

Series 3 — method: protein-binding microarray; molecule type: double-stranded DNA, one strand shown; medium: in vitro; concentration: not given; direction: higher = stronger binding; quantity: E-score
Target: Protein C-ets-1 (ETS1, Homo sapiens, UniProt P14921, residues 1-441, Y397A, full length assumed)
UniProt P14921, sequence (whole entry, unmodified, looked up): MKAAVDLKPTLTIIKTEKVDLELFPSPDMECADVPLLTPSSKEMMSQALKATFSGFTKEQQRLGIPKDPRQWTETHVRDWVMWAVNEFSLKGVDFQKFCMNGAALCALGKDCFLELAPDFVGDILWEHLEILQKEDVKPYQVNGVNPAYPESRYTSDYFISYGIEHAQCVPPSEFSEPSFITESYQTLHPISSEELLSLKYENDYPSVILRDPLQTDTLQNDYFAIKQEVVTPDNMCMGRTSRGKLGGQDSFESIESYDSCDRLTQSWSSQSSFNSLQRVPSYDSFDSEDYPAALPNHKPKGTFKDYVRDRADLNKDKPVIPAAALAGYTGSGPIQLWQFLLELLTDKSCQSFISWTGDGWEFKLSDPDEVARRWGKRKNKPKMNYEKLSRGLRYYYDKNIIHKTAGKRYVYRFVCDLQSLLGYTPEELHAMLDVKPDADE
Setting: k-mer, scored over probes, only values ≥0.25
AATGTCAC: 0.273
CACTGTCG: 0.277
CTGCCATA: 0.251
ATGCCAAA: 0.275
GTTGCAAC: 0.272
CAATTGTC: 0.406
ATGGCACA: 0.269
TTGGCAAA: 0.433
ACCCGCCC: 0.359
CATTACAA: 0.291

Single results of other studies
PhoQ, residues 284 288 289 292 302 303 SNGLAW
fold induction (PhoP, residues 12 14 15 18 19 VHSCL (Escherichia coli, UniProt P23836); Sort-seq, measured: YFP reporter; E. coli; PhoQ-PhoP variant library, added: 10 µM Mg2+; baseline: high Mg2+ state, higher = stronger signaling): 12.4

Repeated from above (series 3):
CACTGTCG: 0.277
CTGCCATA: 0.251
ATGCCAAA: 0.275
